Experimental data collected from several papers.
Protocols differ between the studies behind these lines.

Compound	assay	system	setting	how to read	measurement	result
CC(C)[C@H](NC(=O)CNC(=O)[C@H](CCC(N)=O)NC(=O)[C@H](C)N)C(=O)O	–	human, plasma	continuous infusion, dose not given	–	time to steady state	15 min
CC(C)[C@H](NC(=O)CNC(=O)[C@H](CCC(N)=O)NC(=O)[C@H](C)N)C(=O)O	LC-MS/MS	healthy human volunteers, plasma	continuous intravenous infusion, 15, 45, 90 mg/kg/h, 2 h infusion, experimental endotoxaemia	–	time to steady state	≤ 15 min
CN1CCN(c2cc(-c3ccccc3CO)c(N(C)C(=O)C(C)(C)c3cc(C(F)(F)F)cc(C(F)(F)F)c3)cn2)CC1	–	human, plasma	dose not given	–	time to terminal elimination phase	24 h
Nc1ncnc(NCC2CCN(C(=O)C(O)CO)CC2)c1-c1ccc(Oc2ccccc2)cc1 (stereo not drawn)	–	healthy male human, plasma	oral, 75 mg evobrutinib	up to	time observed	≤ 8 h
CCCCCCCOc1ccc(CC[C@](N)(CO)COP(=O)(O)O)cc1C(F)(F)F	–	male humans, plasma	oral	–	time to steady state	~10 weeks
[11CH3]Nc1ccc(-c2nc3ccc(O)cc3o2)cn1	PET	human, brain	intravenous, dose not given	–	time to peak brain radioactivity	~1 min
CC(=O)NCCc1c[nH]c(=S)n1[C@H]1COc2c(F)cc(F)cc2C1	–	healthy young male human, plasma	oral, 25 to 600 mg once daily	–	time to steady state	≤ 13000 min
Cc1ccccc1-c1cc(N2CC[N+](C)([O-])CC2)ncc1N(C)C(=O)C(C)(C)c1cc(C(F)(F)F)cc(C(F)(F)F)c1	–	human, plasma	–	–	time quantifiable in plasma	4 days
CC(C)(O)c1ncc([S@](N)(=O)=NC(=O)Nc2c3c(cc4c2CCC4)CCC3)s1	–	healthy human subjects, urine	oral, multiple ascending dose	–	time of main urinary excretion	≤ 12 h

Repeated from above:
Compound	assay	system	setting	how to read	measurement	result
CC(C)[C@H](NC(=O)CNC(=O)[C@H](CCC(N)=O)NC(=O)[C@H](C)N)C(=O)O	LC-MS/MS	healthy human volunteers, plasma	continuous intravenous infusion, 15, 45, 90 mg/kg/h, 2 h infusion, experimental endotoxaemia	–	time to steady state	≤ 15 min
